Measured values gathered from unrelated publications.
Each line is one published result; not all experiments were run side by side. “And” joins repeats or separate records; there may be more than shown. ± gives the spread as reported.

SMILES	test	system	conditions	scale	endpoint	value
O=C1Nc2cc3[nH]nc(-c4ccncc4)c3cc2CN1Cc1ccccc1	CTCAE v4.03	human, relapsed or refractory advanced solid tumours	intravenous, 7.2 mg/kg, pooled schedules	–	patients with rash	0%
COc1ccc2nc3cc(Cl)ccc3c(Nc3cc(CN4CCCC4)c(O)c(CN4CCCC4)c3)c2n1	–	mouse, blood	intraperitoneal, 28 mg/kg	–	red cell distribution width (SD)	25.2 fL
C[C@@H](NC(=O)N1C(=O)[C@H](Cc2ccnc(N)c2)[C@H]1C(=O)O)C1CCCCC1	–	healthy adult Chinese volunteers	continuous intravenous infusion, 0.6 mg/kg/h, 5-day infusion, CTCAE 5.0 grading	–	incidence of infusion site pain	0%
C=CC(=O)Nc1cc(Nc2nccc(Nc3cc(Cl)c(F)cc3C(C)(C)O)n2)c(OC)cc1N1CC[C@@H](N(C)C)C1	–	human patients	oral, 300 mg, treatment-emergent adverse events	–	patients with diarrhoea	56.9%
S=c1oc(-c2ccccc2)nn1CN1CCN(Cc2ccccc2)CC1	–	Wistar rat female	oral, 500 mg/kg, acute toxicity OECD 423	–	serum ALP	13 ± 1.02 KA/dL
CN[C@@H](C)C(=O)N[C@H]1CN(S(=O)(=O)c2cccc(S(=O)(=O)N3CC[C@H]4CC[C@@H](C(=O)NC(c5ccccc5)c5ccccc5)N4C(=O)[C@@H](NC(=O)[C@H](C)NC)C3)c2)CC[C@H]2CC[C@@H](C(=O)NC(c3ccccc3)c3ccccc3)N2C1=O	–	patients with advanced solid tumours	0.6 mg, phase I monotherapy	–	treatment-related facial nerve disorder incidence	0%
[2H]C([2H])([18F])[C@]([2H])(N)C(=O)O	PET	athymic nude mice, U-87 MG, tumor	dose not given, 15 min post-injection	–	tissue uptake	1.52 ± 0.08 %ID/cc
COc1ncccc1-c1cnn2ccc(N3CCN(C(=O)OC(C)C)CC3)nc12	–	rat, STZ model, plasma	oral, 3 mg/kg, 240 min	–	drug concentration	0.32 µM
NCCCC[C@@H]1NC(=O)[C@@H](Cc2c[nH]c3ccccc23)NC(=O)[C@H](c2ccccc2)NC(=O)[C@@H]2C[C@@H](OC(=O)NCCN)CN2C(=O)[C@H](Cc2ccccc2)NC(=O)[C@H](Cc2ccc(OCc3ccccc3)cc2)NC1=O	–	healthy human volunteers	1950 µg twice daily	–	subjects with injection-site erythema	90%
[O-][S+]1CCc2nc(N3CCC(c4ncc(Cl)cn4)CC3)nc(NC3(CO)CCC3)c21 (stereo not drawn)	–	idiopathic pulmonary fibrosis patients	18 mg twice daily	–	Proctalgia adverse events	10%
Clc1nc[n]([Au][PH](c2ccccc2)(c2ccccc2)c2ccccc2)c1Cl	–	NCG mouse, plasma	intraperitoneal, 10 mg/kg	–	CL/F	5.88 mL/h/kg
CN1CCN(S(=O)(=O)c2cc([N+](=O)[O-])ccc2N(CCOS(C)(=O)=O)CCOS(C)(=O)=O)CC1	–	NSG mice, brain	intraperitoneal, 5 mg/kg, 0.25 h	–	concentration	not detected
CC[C@H](C)[C@H](NC(=O)[C@H](CCCCN)NC(=O)[C@H](CCC(=O)O)NC(=O)[C@H](CCCCN)NC(=O)[C@H](CO)NC(=O)[C@H](CCCCN)NC(=O)[C@H](CCCNC(=N)N)NC(=O)[C@H](Cc1ccccc1)NC(=O)[C@H](Cc1ccccc1)NC(=O)[C@H](CC(=O)O)NC(=O)CNC(=O)[C@H](CC(C)C)NC(=O)[C@@H](N)CC(C)C)C(=O)NCC(=O)N[C@@H](CCCCN)C(=O)N[C@@H](CCC(=O)O)C(=O)N[C@@H](Cc1ccccc1)C(=O)N[C@@H](CCCCN)C(=O)N[C@@H](CCCNC(=N)N)C(=O)N[C@H](C(=O)N[C@H](C(=O)N[C@@H](CCC(N)=O)C(=O)N[C@@H](CCCNC(=N)N)C(=O)N[C@H](C(=O)N[C@@H](CCCCN)C(=O)N[C@@H](CC(=O)O)C(=O)N[C@@H](Cc1ccccc1)C(=O)N[C@@H](CC(C)C)C(=O)N[C@@H](CCCNC(=N)N)C(=O)N[C@@H](CC(N)=O)C(=O)N[C@@H](CC(C)C)C(=O)N[C@H](C(=O)N1CCC[C@H]1C(=O)N[C@@H](CCCNC(=N)N)C(=O)N[C@H](C(=O)N[C@@H](CCC(=O)O)C(=O)N[C@@H](CO)C(=O)O)[C@@H](C)O)C(C)C)[C@@H](C)CC)C(C)C)[C@@H](C)CC	LC-MS	buffer with trypsin	40 µM, 20 min, pH 7.5, 37 °C	baseline: 0 h	remaining intact peptide	8.7% and 8.81% and 10.8%
O=S(=O)(Nc1ccccc1)c1ccc(NC(=S)Nc2ccccc2)cc1	–	mouse, male, small intestine	oral, 5 mg/kg daily, 14 days	baseline: body weight	relative organ weight	2.6%
C[C@]1(O)C[C@@](N)(c2ccc(-c3nc4n(c3-c3ccccc3)COc3ccncc3-4)cc2)C1	–	human, advanced or metastatic solid tumours	24 mg intermittent, phase I dose escalation	–	patients with Hyperglycemia TEAE	25%
CCCCCOc1ccc(-c2ccc(-c3ccc(C(=O)N[C@H]4C[C@@H](O)[C@@H](OCC[N+](C)(C)C)NC(=O)[C@@H]5[C@@H](O)[C@@H](C)CN5C(=O)[C@H]([C@@H](C)O)NC(=O)[C@H]([C@H](O)[C@@H](O)c5ccc(O)cc5)NC(=O)[C@@H]5C[C@@H](O)CN5C(=O)[C@H]([C@@H](C)O)NC4=O)cc3)cc2)cc1	–	adult ICU patients, mITT, serum	dose not given, day 14	–	alanine aminotransferase	20.5 U/L
CNC(=O)c1cc(Oc2ccc(NC(=O)Nc3cc(C(C)(C)C)nn3-c3ccc4ncccc4c3)c(F)c2)ccn1	any related SAE, NCI CTC v3.0	human patients	oral, all dose levels	–	related SAE	32%
O=C(Nc1ccccc1)C1CCN(C(=O)Oc2cccnc2)CC1	psychotropic effects VAS	healthy women	20 mg	baseline: pre-dose baseline, direction not given	change in Colors score	0.1

SMILES	test	system	conditions	scale	endpoint	value
C=CC(=O)N1CC[C@H](n2nc(C#Cc3cc(OC)cc(OC)c3)c3c(N)ncnc32)C1	–	human patients	oral, dose not given, QD regimen, adverse drug reaction, with: any phosphate binder	–	AST increased, any grade	20%
CCCCCCCCCCCCCCCC(=O)N[C@@H](CCC(=O)NCCCC[C@H](NC(=O)[C@H](CC(=O)O)NC(=O)[C@H](CO)NC(=O)[C@@H](NC(=O)[C@H](Cc1ccccc1)NC(=O)[C@@H](NC(=O)CNC(=O)[C@H](CCC(N)=O)NC(=O)[C@H](CO)NC(=O)[C@@H](N)Cc1c[nH]cn1)[C@@H](C)O)[C@@H](C)O)C(=O)N[C@@H](CO)C(=O)N[C@@H](CCC(=O)O)C(=O)N[C@@H](Cc1ccc(O)cc1)C(=O)N[C@@H](CC(C)C)C(=O)N[C@@H](CC(=O)O)C(=O)N[C@@H](CO)C(=O)N[C@@H](CCC(=O)O)C(=O)N[C@@H](CCCNC(=N)N)C(=O)N[C@@H](C)C(=O)N[C@@H](CCCNC(=N)N)C(=O)N[C@@H](CC(=O)O)C(=O)N[C@@H](Cc1ccccc1)C(=O)N[C@H](C(=O)N[C@@H](C)C(=O)N[C@@H](Cc1c[nH]c2ccccc12)C(=O)N[C@@H](CC(C)C)C(=O)N[C@@H](CCC(=O)O)C(=O)N[C@@H](C)C(=O)NCC(=O)NCC(=O)O)C(C)C)C(=O)O	measured: Flatulence	humans CrCl 45 to 60 mL/min	subcutaneous, 100 µg single dose	–	treatment-related adverse events	0%
CCc1ccc(CC/C=C/c2ccc3c(c2)C(=O)CC3)cc1	–	Sprague-Dawley rat, male	oral, 30 mg/kg/day, 14 days	–	Albumin	33.6 g/L
CC(=O)c1c(C)c2cnc(Nc3ccc(C4CCN(CCS(C)(=O)=O)CC4)cn3)nc2n(C2CCCC2)c1=O	–	HR+/HER2- advanced breast cancer patients	oral, dose not given, all grades, total	–	patients with any TEAE	100%
[Cl][212Pb][Cl]	–	athymic mice, C4-2 xenograft, urine	intravenous, 2 h, 212Pb-labelled	–	tissue uptake	21.4 ± 14.1 %ID/g
CC(C)C[C@H](NC(=O)[C@H](CCCCN)NC(=O)OCC1c2ccccc2-c2ccccc21)C(=O)N[C@H](C(=O)N[C@@H](Cc1ccccc1)C(=O)N[C@@H](Cc1ccccc1)C(=O)N[C@@H](CCCCN)C(=O)NCC(=O)N[C@@H](Cc1ccccc1)C(=O)N[C@@H](C)C(=O)N[C@@H](Cc1c[nH]c2ccccc12)C(=O)N[C@@H](CC(N)=O)C(=O)N[C@H](C(=O)N[C@H]1CSSC[C@@H](C(=O)N[C@@H](Cc2c[nH]cn2)C(=O)N[C@@H](CCCNC(=N)N)C(=O)N[C@@H](CCCNC(=N)N)C(=O)N[C@@H](C)C(=O)N[C@@H](CC(N)=O)C(N)=O)NC(=O)[C@H](C(C)C)NC(=O)[C@H](CCCNC(=N)N)NC(=O)[C@H](C(C)C)NC(=O)CNC(=O)[C@H](CC(N)=O)NC(=O)[C@H](CCCNC(=N)N)NC(=O)[C@H](Cc2ccc(O)cc2)NC(=O)[C@H](C(C)C)NC1=O)C(C)C)C(C)C	circular dichroism, measured: β-Turn	PBS	80 µM, pH 7.4, with: LPS 1 µM	–	secondary structure content	17%
COc1cccc(Oc2ccccc2NC(=O)CNC(=O)c2cccc3ccccc23)c1	–	esterase-deficient SCID mice, male, blood	oral, 100 mg/kg/day, 14 days, toxicity study	baseline: white cells	basophils	1.1% and 2.2% and 0%
Cn1cc(-c2nc(N[C@@H]3CCCC[C@@H]3N)c(F)c3c2C(=O)NC3)cn1	any bleeding	patients with relapsed or refractory AML	oral, 100 mg once daily	–	adverse events	71%
COc1cc2c(Oc3ccc4[nH]c(C)cc4c3F)ccnc2cc1OCC1(N)CC1	–	paediatric recurrent refractory sarcoma	concentration not given, whole group	–	grade 1 or 2 Leukopenia	20.6%
N=C(N)NCCC[C@@H](NC(=O)[C@@H](N)Cc1ccccc1)C(=O)N[C@@H](Cc1ccccc1)C(=O)N[C@@H](CCCCN)C(N)=O	LC-MS	human, urine	subcutaneous, 25 mg, 5.833 h, median	–	fraction of dose excreted unchanged	33.5%
COc1ccnc(C(=O)N[C@H]2COC(=O)[C@H](Cc3ccccc3)[C@@H](OC(=O)C(C)C)[C@H](C)OC2=O)c1OCOC(=O)C(C)C	–	field soil, loamy sand	normalised, Germany	–	DT50	48.2 days
Cn1cncc1-c1c(F)cncc1NC(=O)c1c(N)nn2cc(F)cnc12	–	human patients	oral, up to 40 mg once daily, 21 days	–	upper gastrointestinal haemorrhage DLT	0%
C[C@]1(CO)Cc2ncn(-c3ccc(C#N)c(Cl)c3)c2C(=O)O1	–	human, Chinese	60 mg single dose	–	subjects with drug-related acne	0%
Oc1ccc(Cl)c(-c2cc(Cl)c(Cl)cc2Cl)c1Cl	enantioselective gas chromatography	racemized sample	column temperature 170 °C	–	enantiomeric fraction	0.5
C#C[C@]1(CO)O[C@@H](n2cnc3c(N)nc(F)nc32)C[C@@H]1O	–	monkey, plasma	oral, 20 mg/kg/dose, 29 days	–	Cmax at NOAEL	8.4 µM
CO[C@H]1C[C@@H]2CC[C@@H](C)[C@@](O)(O2)C(=O)C(=O)N2CCCC[C@H]2C(=O)O[C@H]([C@H](C)C[C@@H]2CC[C@@H](OC(=O)NCCOCCOCCOCCOCCOCCOCCOCCOCCC(=O)N3CCc4cc(Cn5nc(-c6ccc7oc(N)nc7c6)c6c(N)ncnc65)ccc4C3)[C@H](OC)C2)C[C@@H](O)[C@H](C)/C=C(\C)[C@@H](O)[C@@H](OC)C(=O)[C@H](C)C[C@H](C)/C=C/C=C/C=C/1C	–	patients with advanced solid tumours	intravenous, 6 mg weekly, any grade	–	abdominal pain incidence	16.7%
CC(C)CC(=O)OC[C@H]1O[C@@](C#N)(c2ccc3c(N)ncnn23)[C@H](O)[C@@H]1O	–	dog plasma	90 µM	–	fraction unbound	0.254
C[C@H]1COCCN1c1nc(NCc2cccnc2C(F)(F)F)c2cccnc2n1	–	conscious rat	intravenous, 10 mg/kg	baseline: control	QRS change	11.5%
